{"data": "Results from different studies", "note": "Parts stem from different laboratories: compare values within a part only. Substitutions count along the parent as printed."}
{"data": "Sample 1", "target": "RNA binding protein fox-1 homolog 2, RRM domain, GST-SBP tag (RBFOX2, Homo sapiens, UniProt O43251-10, residues 100-194)", "technique": "RNA Bind-n-Seq", "molecule type": "RNA", "matrix": "in vitro", "concentration": "365 nM", "notes": "natural RNA segment, single round, ends assumed", "reference": "no-protein control", "reading": "higher = stronger binding", "constant ends, left off below": "GGGAGUUCUACAGUCCGACGAUC … UGGAAUUCUCGGGUGCCAA", "Construct (chain)": "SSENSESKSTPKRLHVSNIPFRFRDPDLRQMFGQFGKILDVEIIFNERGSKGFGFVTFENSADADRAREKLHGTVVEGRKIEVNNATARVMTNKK"}
{"Strand": "AAAACUGAUAAUAAUUGGGACAUCAUCUUACUUCCCAAAAUGUGUUUGCCUGUCCCCGGAGGCUGGAAGUAGAAGCCAGGCUACAUCUAAGUUGCCCUGACUGGCCUUCA", "RBNS enrichment (R)": 0.637}
{"Strand": "GGGGAAGAGGGGGUGGGUAAGCGCCCUCCUUCCUGUUUUUAUCUAAUAAAAUGCUAACCUGCCCAGGGUUCCUAUUACUGUGGGAGGGGUCCCCUGGGCCAGCCAGCGAU", "RBNS enrichment (R)": 0.563}
{"Strand": "CUUUUGGCGUGCAUAAGGAUCACUGUGUACACAUUGGCCAAGUGCUUCUGUAGAUAAUGUCUGUGGAGUAAAUAUUUGACAGGCCAGAACUUGAGUCUUUUGCCUUGCCU", "RBNS enrichment (R)": 0.988}
{"Strand": "AAGUGUAUUUAUACCAAGAUGGAGAUCUUGACUUCUUGAAUAUAUCUGGACUGGUAAAAUCUUGAUGAGGCUCAUAAAAUGAGUUUGGGAAUUGUGUAUAGCUGAUUUUU", "RBNS enrichment (R)": 2.49}
{"Strand": "UUCUCAGAUGGGAUGACUGCGGGUCAGUGCACCGAAGAGGCGGGCGCAGGCGCUGUCUGGCUCAGCUGCCCCCUUGGGGUGGGCAGGGAGGACCAGACUGCUUGGGUGAU", "RBNS enrichment (R)": 0.326}
{"Strand": "UGACUUUUCAGCCAGUACCAUUUUAUUUACCUGAGCUUGUCAUGGAAGUGGCAGUAAAAAGUAUUGAGUGUUUUAUGCUGGUGACUGUAACCAAUGUCAUCUUGCUAAAU", "RBNS enrichment (R)": 0.399}
{"Strand": "CAAGCCCUGCUGAUCAGAGAAAGUCUCUGCAUGUUCUAGUGUUAGUAACUAAUUUUUAUAUAGUUAAUGUAGGAUAAAGUAGAGUGCAUUAAGACACAAUAUUGUAAUCC", "RBNS enrichment (R)": 2.27}
{"Strand": "UGUGCUGACAUUAGCAUUCACCCUGUUGGAUAGGUUAGCUUCCCGAGACAUCUCCUUCCACCAUUCCCCACUUCUGCCACCUGCUGCUCUUCUCUGUCCUUAGUUGUGAG", "RBNS enrichment (R)": 0.72}
{"data": "Sample 2", "target": "Interferon regulatory factor 3, full length, phosphomimetic (IRF3, Homo sapiens, UniProt Q14653, residues 1-427, S386D/S396D/S398D/S402D/T404D/S405D)", "technique": "protein-binding microarray", "molecule type": "double-stranded DNA, one strand shown", "matrix": "in vitro", "concentration": "2540 nM top", "notes": "60-bp whole probe", "together with": "salmon DNA 0.4 mg/ml", "reference": "random background probes", "reading": "higher = stronger binding", "constant ends, left off below": "GCCTAGCAC … GTCTTGATTCGCTTGACGCTGCTG", "Target sequence (chain)": "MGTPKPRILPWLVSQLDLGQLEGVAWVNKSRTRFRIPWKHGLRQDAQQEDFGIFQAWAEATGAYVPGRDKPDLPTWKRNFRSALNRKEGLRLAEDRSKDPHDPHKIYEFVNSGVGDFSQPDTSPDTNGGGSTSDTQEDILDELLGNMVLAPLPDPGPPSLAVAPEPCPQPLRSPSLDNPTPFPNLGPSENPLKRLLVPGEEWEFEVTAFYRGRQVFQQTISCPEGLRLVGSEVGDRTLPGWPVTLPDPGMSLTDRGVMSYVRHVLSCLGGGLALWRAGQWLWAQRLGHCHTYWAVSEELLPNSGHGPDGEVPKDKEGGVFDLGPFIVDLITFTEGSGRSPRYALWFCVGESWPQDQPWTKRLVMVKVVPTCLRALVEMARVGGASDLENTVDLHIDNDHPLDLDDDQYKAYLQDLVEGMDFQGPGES"}
{"Strand": "TTAGGTATACTTATCCTTTAGTGCTAG", "fitted relative affinity [z-score]": 0.682}
{"Strand": "GACGGTATCGACTTTCGGGAAGTGCTA", "fitted relative affinity [z-score]": 1.34}
{"Strand": "TTAGGTCTCGGTATCGGATAGTGCTAG", "fitted relative affinity [z-score]": 1.96}
{"Strand": "GACGAAGTGGGGTATCGAGACGTGCTA", "fitted relative affinity [z-score]": -0.635}
{"Strand": "TGAGATCTCAGTATCGATTAGTGCTAG", "fitted relative affinity [z-score]": 0.884}
{"Strand": "GGCGGTATCGACTTTCGGGACGTGCTA", "fitted relative affinity [z-score]": 1.2}
{"Strand": "TCAGTTCTCCCTTTCAGTTTGTGCTAG", "fitted relative affinity [z-score]": 4.43}
{"Strand": "GATGAACTGAGTCTCGAGACGTGCTAG", "fitted relative affinity [z-score]": -0.546}
{"Strand": "GCTTTTTTTTTTTTTTTTTTGTGCTAG", "fitted relative affinity [z-score]": 1.14}
{"Strand": "GCGCCTGTAGCCCCTCCAGGGTGCTAG", "fitted relative affinity [z-score]": -0.528}
{"Strand": "GTCGGTCTCGGTCTCGGGACGTGCTAG", "fitted relative affinity [z-score]": 2.53}
{"Strand": "TCATGAATGTGTCTTAAACTGTGCTAG", "fitted relative affinity [z-score]": -0.209}
{"Strand": "TTAGATTTCGGGTTTCGATGAGTGCTA", "fitted relative affinity [z-score]": 2.69}
{"Strand": "GACGTTATCGGGTTTCGGGACGTGCTA", "fitted relative affinity [z-score]": 1.62}
{"Strand": "GAGGATCTCAGTATCGAGACGTGCTAG", "fitted relative affinity [z-score]": 0.15}
{"Strand": "TTCATTATTGCTTCCTCTTTGTGCTAG", "fitted relative affinity [z-score]": 0.698}
{"Strand": "TTAGGAATCCTACTGCTTTAGTGCTAG", "fitted relative affinity [z-score]": 0.624}
{"Strand": "GACGGTATCGGTCGCGGGACGTGCTAG", "fitted relative affinity [z-score]": 1.56}
{"Strand": "TTAGGTTTACTTTTCCTTTAGTGCTAG", "fitted relative affinity [z-score]": 4.13}
{"data": "Sample 3", "Molecule": "PhoQ, residues 284 288 289 292 302 303 SNSSNI", "technique": "Sort-seq", "measured": "YFP reporter", "matrix": "E. coli", "notes": "PhoQ-PhoP variant library", "together with": "10 µM Mg2+", "reference": "high Mg2+ state", "reading": "higher = stronger signaling"}
{"target": "PhoP, residues 12 14 15 18 19 VHTVL (Escherichia coli, UniProt P23836)", "fold induction": 7.41}
{"target": "PhoP, residues 12 14 15 18 19 ICWRQ (Escherichia coli, UniProt P23836)", "fold induction": 3.09}
{"target": "PhoP, residues 12 14 15 18 19 TQCLL (Escherichia coli, UniProt P23836)", "fold induction": 6.26}
{"data": "Sample 4", "target": "CCND3, cyclin fold, Cln2 fusion (human)", "technique": "yeast growth competition, sequencing", "matrix": "yeast", "notes": "weak parent motif", "reference": "not given", "reading": "higher = stronger binding", "starting sequence": "CENPC docking peptide (human); VKTKKRLNFDDKV"}
{"Substitution": "VKTKRRLNFDDKV [K5R]", "normalised enrichment score": 0.88}
{"Substitution": "VKTKKRLAFDDKV [N8A]", "normalised enrichment score": 0.25}
{"Substitution": "VKTKKRANFDDKV [L7A]", "normalised enrichment score": 0.191}
{"Substitution": "AKTKKRLNFDDKV [V1A]", "normalised enrichment score": 0.163}
{"Substitution": "VKTKKRLNFDDKA [V13A]", "normalised enrichment score": 0.0404}
{"Substitution": "VATKKRLNFDDKV [K2A]", "normalised enrichment score": 0.143}
{"Substitution": "VKTKKALNFDDKV [R6A]", "normalised enrichment score": 0.163}
{"data": "Mixed results", "technique": "cross-linking MS", "matrix": "cell fractions"}
{"Molecule": "PTBP1 (Homo sapiens, UniProt P26599)", "partner": "ANAPC5 (Homo sapiens, UniProt Q9UJX4)", "together with": "DSSO", "cross-linked residues": "K454 to K189"}
{"Molecule": "VN1R2 (Homo sapiens, UniProt Q8NFZ6)", "partner": "H4C7 (Homo sapiens, UniProt Q99525)", "together with": "DMTMM", "cross-linked residues": "D125 to K9"}
{"Molecule": "HNRNPD (Homo sapiens, UniProt Q14103)", "partner": "SCFD1 (Homo sapiens, UniProt Q8WVM8)", "together with": "DSSO", "cross-linked residues": "K197 to Y421"}
{"Molecule": "INPPL1 (Homo sapiens, UniProt O15357)", "partner": "ZNF148 (Homo sapiens, UniProt Q9UQR1)", "together with": "DSSO", "cross-linked residues": "S397 to S350"}
